{"data": "Experimental data from different studies", "note": "Values joined by “and” are separate records of one study, mostly repeats; a detail may differ."}
{"SMILES": "O=C1[O][Pt]2([NH][C@@H]3CCCC[C@H]3[NH]2)[O]C1=O", "system": "NSG mouse HCT-116 xenograft", "setting": "intraperitoneal, 7.5 mg/kg", "measurement": "tumour weight", "result": "0.638 g and 0.675 g and 0.58 g and 0.868 g and 1.01 g"}
{"SMILES": "N.N.[Cl][Pt][Cl]", "system": "nude mouse NCI-H460 xenograft", "setting": "3 mg/kg", "measurement": "tumour growth inhibition", "result": "~80%"}
{"SMILES": "Cc1n[nH]cc1-c1cc2nc([C@@H]3CC4CCN3CC4)[nH]c(=O)c2s1", "system": "mouse COLO 205 xenograft", "setting": "oral, 20 mg/kg twice daily, 7 days after dosing end, 28 days", "measurement": "tumour growth inhibition", "result": "41.6%"}
{"SMILES": "C[C@]12CC[C@H](O)CC1=CC[C@@H]1[C@@H]2CC[C@]2(C)C(n3cnc4ccccc43)=CC[C@@H]12.Cl", "system": "mouse CWR22Rv1 xenograft", "setting": "oral, 96 mg/kg once daily, 16 days, 5 days per week", "measurement": "tumour growth inhibition", "result": "148%"}
{"SMILES": "C=CC(=O)N1C[C@@H](n2nc(C#Cc3c(F)cc4c(ncn4C4CC4)c3F)c(C(N)=O)c2NC)C[C@@H]1COC", "system": "mouse, CCLP-1-FP-N550K xenograft", "setting": "15 mg/kg daily, 28 days", "measurement": "tumour growth inhibition", "result": "84%"}
{"SMILES": "C[C@]12CC[C@H](O)C[C@H]1CC[C@@H]1[C@@H]2CC[C@]2(C)[C@@H](c3ccc(=O)oc3)CC[C@]12O", "system": "female nude mouse LCC2 xenograft", "setting": "0.5 mg/kg, day 1, tamoxifen-resistant", "measurement": "tumour volume", "result": "28.2 mm3 and 18.9 mm3 and 29.8 mm3 and 31.8 mm3 and 26.1 mm3 and 16.1 mm3 and 17.2 mm3"}
{"SMILES": "CC[C@@H](C)[C@@H](NC(=O)[C@@H](Cc1ccc(O)cc1)NC(=O)[C@H]1CCCN1C(=O)[C@@H](CCCNC(=N)N)NC(=O)[C@H](N)Cc1c[nH]cn1)C(=O)N[C@H](C)C(=O)N[C@H](Cc1c[nH]cn1)C(=O)N[C@H](CCCNC(=N)N)C(=O)N[C@H](CCCCNC(=O)c1cccc(S(=O)(=O)F)c1)C(=O)N[C@H](Cc1ccc(O)cc1)C(=O)N[C@H](CO)C(=O)N[C@H](Cc1ccccc1)C(N)=O", "system": "mouse orthotopic GL261-Luc glioma", "setting": "intraperitoneal, 3.9 mg/kg", "measurement": "tumour regression rate", "result": "50%"}
{"SMILES": "O=C([O-])CN1CCN(CC(=O)[O-])CCN(CC(=O)NCC2CCC(C(=O)N[C@@H](Cc3ccc4ccccc4c3)C(=O)NCCCC[C@H](NC(=O)N[C@@H](CCC(=O)O)C(=O)O)C(=O)O)CC2)CCN(CC(=O)[O-])CC1.[177Lu+3] (stereo partly shown)", "system": "mouse 22Rv1 xenograft", "setting": "intravenous, 14.8 MBq", "measurement": "tumour growth inhibition", "result": "73.4%"}
{"SMILES": "COc1cc2c3c(n(CCCNCCO)c(=O)c2cc1OC)-c1cc2c(cc1C3=O)OCO2", "test": "bioluminescence imaging", "system": "GL261-Luc, mouse orthotopic glioblastoma", "setting": "intravenous, 20 mg/kg, day 21", "how to read": "baseline: control", "measurement": "tumour growth reduction", "result": "57.5%"}
{"SMILES": "CC[C@H](C)[C@H](NC(=O)[C@H](CCCCN)NC(=O)[C@@H](NC(=O)[C@H](CCCNC(=N)N)NC(=O)[C@@H](NC(=O)[C@@H](CCCNC(=N)N)NC(=O)[C@@H](CCCNC(=N)N)NC(=O)[C@@H](CCCNC(=N)N)NC(=O)[C@@H](CCCNC(=N)N)NC(=O)[C@@H](CCCNC(=N)N)NC(=O)[C@H](N)CCCNC(=N)N)[C@@H](C)O)[C@@H](C)O)C(=O)N[C@@H](CC(=O)O)C(=O)N[C@@H](Cc1c[nH]c2ccccc12)C(=O)NC(C)(C)C(=O)N[C@@H](CCCCN)C(=O)N[C@H](C(=O)N[C@@H](CC(C)C)C(=O)NC(C)(C)C(=O)N[C@@H](CCCCN)C(=O)NCCCCCC(=O)NCCCC[C@H](NC(=O)CCCCCNC(=O)[C@H](CCCCN)NC(=O)C(C)(C)NC(=O)[C@H](CC(C)C)NC(=O)[C@@H](NC(=O)[C@H](CCCCN)NC(=O)C(C)(C)NC(=O)[C@H](Cc1c[nH]c2ccccc12)NC(=O)[C@H](CC(=O)O)NC(=O)[C@@H](NC(=O)[C@H](CCCCN)NC(=O)[C@@H](NC(=O)[C@H](CCCNC(=N)N)NC(=O)[C@@H](NC(=O)[C@@H](CCCNC(=N)N)NC(=O)[C@@H](CCCNC(=N)N)NC(=O)[C@@H](CCCNC(=N)N)NC(=O)[C@@H](CCCNC(=N)N)NC(=O)[C@@H](CCCNC(=N)N)NC(=O)[C@H](N)CCCNC(=N)N)[C@@H](C)O)[C@@H](C)O)[C@@H](C)CC)[C@@H](C)CC)C(N)=O)[C@@H](C)CC", "system": "B16-F10, C57BL/6J mouse syngeneic melanoma", "setting": "intravenous, 50 mg/kg, up to 8 days, dosed days 0 to 7", "measurement": "tumour growth", "result": "inhibited"}
{"note": "For quick reference, copied from above:"}
{"SMILES": "N.N.[Cl][Pt][Cl]", "system": "nude mouse NCI-H460 xenograft", "setting": "3 mg/kg", "measurement": "tumour growth inhibition", "result": "~80%"}
{"SMILES": "C[C@]12CC[C@H](O)C[C@H]1CC[C@@H]1[C@@H]2CC[C@]2(C)[C@@H](c3ccc(=O)oc3)CC[C@]12O", "system": "female nude mouse LCC2 xenograft", "setting": "0.5 mg/kg, day 1, tamoxifen-resistant", "measurement": "tumour volume", "result": "28.2 mm3 and 18.9 mm3 and 29.8 mm3 and 31.8 mm3 and 26.1 mm3 and 16.1 mm3 and 17.2 mm3"}
